Assay results collected from several papers.
Compare with care: the assays were run in different laboratories. ± gives the spread as reported.

CC[C@H](C)C(=O)N1CCC(NC(=O)Nc2ccc(OC(F)(F)F)c(F)c2)CC1  half-life (human; oral, 2 mg, single dose, mean): 143 h
CC1(C)C(=O)N(c2ccc(C#N)c(C(F)(F)F)c2)C(=S)N1c1ccc(C(=O)O)c(F)c1  half-life (human, male, plasma; oral, 160 mg, single dose, after high-fat meal): 215 ± 77 h
CC(=CCC(O)C(C)=Cc1csc(C)n1)CC=CC(C)C(O)C(C)C(=O)C(C)(C)C(O)CC(=O)O (stereo not drawn)  half-life (human, plasma; intravenous infusion, 42 mg/m2 KOS-1584, 3 h infusion, cycle 1): 24.1 ± 16.2 h
CCCCCCCC(=O)OC[C@H](NC(=O)[C@H](CO)NC(=O)CN)C(=O)N[C@@H](Cc1ccccc1)C(=O)N[C@@H](CC(C)C)C(=O)N[C@@H](CO)C(=O)N1CCC[C@H]1C(=O)N[C@@H](CCC(=O)O)C(=O)N[C@@H](Cc1cnc[nH]1)C(=O)N[C@@H](CCC(N)=O)C(=O)N[C@@H](CCCNC(=N)N)C(=O)N[C@H](C(=O)N[C@@H](CCC(N)=O)C(=O)N[C@@H](CCC(N)=O)C(=O)N[C@@H](CCCNC(=N)N)C(=O)N[C@@H](CCCCN)C(=O)N[C@@H](CCC(=O)O)C(=O)N[C@@H](CO)C(=O)N[C@@H](CCCCN)C(=O)N[C@@H](CCCCN)C(=O)N1CCC[C@H]1C(=O)N1CCC[C@H]1C(=O)N[C@@H](C)C(=O)N[C@@H](CCCCN)C(=O)N[C@@H](CC(C)C)C(=O)N[C@@H](CCC(N)=O)C(=O)N1CCC[C@H]1C(=O)N[C@@H](CCCNC(=N)N)C(=O)O)C(C)C  half-life (ELISA; healthy humans, both sexes, plasma; continuous intravenous infusion, 1 µg/kg/h, 65 min): 0.183 ± 0.0667 h
C[C@H](NP(=O)(O)OC[C@H]1O[C@@](C#N)(c2ccc3c(N)ncnn23)[C@H](O)[C@@H]1O)C(=O)O  half-life (human, both sexes; dose not given): ~1.25 h
CC(C)C[C@H](NC(=O)[C@H](CCCCN)NC(=O)[C@H](C)NC(=O)[C@@H]1CCCN1C(=O)[C@@H]1CCCN1C(=O)[C@H](CCCCN)NC(=O)[C@H](CCCCN)NC(=O)[C@H](CO)NC(=O)[C@H](CCC(=O)O)NC(=O)[C@H](CCCCN)NC(=O)[C@H](CCCNC(=N)N)NC(=O)[C@H](CCC(N)=O)NC(=O)[C@H](CCC(N)=O)NC(=O)[C@@H](NC(=O)[C@H](CCCNC(=N)N)NC(=O)[C@H](CCC(N)=O)NC(=O)[C@H](Cc1cnc[nH]1)NC(=O)[C@H](CCC(=O)O)NC(=O)[C@@H]1CCCN1C(=O)[C@H](CO)NC(=O)[C@H](CC(C)C)NC(=O)[C@H](Cc1ccccc1)NC(=O)[C@H](CO)NC(=O)[C@H](CO)NC(=O)CN)C(C)C)C(=O)N[C@@H](CCC(N)=O)C(=O)N1CCC[C@H]1C(=O)N[C@@H](CCCNC(=N)N)C(=O)O  half-life ratio (human; relative to: compound over acyl ghrelin): ~3 fold
CC1(C)C(=O)N(c2ccc(C#N)c(C(F)(F)F)c2)C(=S)N1c1ccc(C(N)=O)c(F)c1  half-life (human, male, plasma; oral, 160 mg, single dose, after high-fat meal): 203 ± 50.9 h
CC(C)C[C@@H](NC(=O)[C@@H](Cc1ccccc1)NC(=O)[C@H](N)Cc1ccccc1)C(=O)N[C@H](CCCCN)C(=O)N1CCC(N)(C(=O)O)CC1  half-life (human, plasma; intravenous, 5 µg/kg): 2 h
CCCCCCCCCCCCCCCC(=O)N[C@@H](CCC(=O)NCCCC[C@H](NC(=O)[C@H](CC(=O)O)NC(=O)[C@H](CO)NC(=O)[C@@H](NC(=O)[C@H](Cc1ccccc1)NC(=O)[C@@H](NC(=O)CNC(=O)[C@H](CCC(N)=O)NC(=O)[C@H](C)NC(=O)[C@@H](Cc1ccc(O)cc1)NC(C)=O)[C@@H](C)O)[C@@H](C)O)C(=O)N[C@@H](CO)C(=O)N[C@@H](CCCCN)C(=O)N[C@@H](Cc1ccc(O)cc1)C(=O)N[C@@H](CC(C)C)C(=O)N[C@@H](CC(=O)O)C(=O)N[C@@H](CCC(=O)O)C(=O)N[C@@H](CCCNC(=N)N)C(=O)N[C@@H](C)C(=O)N[C@@H](C)C(=O)N[C@@H](CCC(N)=O)C(=O)N[C@@H](CC(=O)O)C(=O)N[C@@H](Cc1ccccc1)C(=O)N[C@H](C(=O)N[C@@H](CCC(N)=O)C(=O)N[C@@H](Cc1c[nH]c2ccccc12)C(=O)N[C@@H](CC(C)C)C(=O)N[C@@H](CC(C)C)C(=O)N[C@@H](CCC(=O)O)C(=O)NCC(=O)NCC(=O)N1CCC[C@H]1C(=O)N[C@@H](CO)C(=O)N[C@@H](CO)C(=O)NCC(=O)N[C@@H](C)C(=O)N1CCC[C@H]1C(=O)N1CCC[C@H]1C(=O)N1CCC[C@H]1C(=O)N[C@@H](CO)C(N)=O)C(C)C)C(=O)O  half-life (single ascending dose; human; subcutaneous, 15 to 300 µg, geometric mean range): 13.8 to 17.6 h

Excerpt of the above:
CC(C)C[C@H](NC(=O)[C@H](CCCCN)NC(=O)[C@H](C)NC(=O)[C@@H]1CCCN1C(=O)[C@@H]1CCCN1C(=O)[C@H](CCCCN)NC(=O)[C@H](CCCCN)NC(=O)[C@H](CO)NC(=O)[C@H](CCC(=O)O)NC(=O)[C@H](CCCCN)NC(=O)[C@H](CCCNC(=N)N)NC(=O)[C@H](CCC(N)=O)NC(=O)[C@H](CCC(N)=O)NC(=O)[C@@H](NC(=O)[C@H](CCCNC(=N)N)NC(=O)[C@H](CCC(N)=O)NC(=O)[C@H](Cc1cnc[nH]1)NC(=O)[C@H](CCC(=O)O)NC(=O)[C@@H]1CCCN1C(=O)[C@H](CO)NC(=O)[C@H](CC(C)C)NC(=O)[C@H](Cc1ccccc1)NC(=O)[C@H](CO)NC(=O)[C@H](CO)NC(=O)CN)C(C)C)C(=O)N[C@@H](CCC(N)=O)C(=O)N1CCC[C@H]1C(=O)N[C@@H](CCCNC(=N)N)C(=O)O  half-life ratio (human; relative to: compound over acyl ghrelin): ~3 fold
